Results from different studies.
Protocols differ between the studies behind these lines.
B1: MC159L (Molluscum contagiosum virus, UniProt Q98325); chain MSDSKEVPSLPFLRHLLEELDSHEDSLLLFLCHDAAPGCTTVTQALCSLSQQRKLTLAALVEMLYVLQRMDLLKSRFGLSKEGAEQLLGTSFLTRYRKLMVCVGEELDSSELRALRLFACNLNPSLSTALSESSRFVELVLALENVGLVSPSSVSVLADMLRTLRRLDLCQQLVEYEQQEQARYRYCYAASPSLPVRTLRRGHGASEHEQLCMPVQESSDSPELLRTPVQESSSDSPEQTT
B2: acrA (Escherichia coli, UniProt P0AE06); N-terminal lipid at C25; chain CDDKQAQQGGQQMPAVGVVTVKTEPLQITTELPGRTSAYRIAEVRPQVSGIILKRNFKEGSDIEAGVSLYQIDPATYQATYDSAKGDLAKAQAAANIAQLTVNRYQKLLGTQYISKQEYDQALADAQQANAAVTAAKAAVETARINLAYTKVTSPISGRIGKSNVTEGALVQNGQATALATVQQLDPIYVDVTQSSNDFLRLKQELANGTLKQENGKAKVSLITSDGIKFPQDGTLEFSDVTVDQTTGSITLRAIFPNPDHTLLPGMFVRARLEEGLNPNAILVPQQGVTRTPRGDATVLVVGADDKVETRPIVASQAIGDKWLVTEGLKAGDRVVISGLQKVRPGVQVKAQEVTADNNQQAASGAQPEQSKS
B3: PilA soluble N-terminally truncated (Haemophilus influenzae, UniProt Q5D8E3); chain TKKAAVSELLQASAPYKADVELCVYSTNETTNCTGGKNGIAADITTAKGYVKSVTTSNGAITVKGDGTLANMEYILQATGNAATGVTWTTTCKGTDASLFPANFCGSVTQ
B4: HBZ 1-77 (HTLV-1, UniProt P0C746-2); chain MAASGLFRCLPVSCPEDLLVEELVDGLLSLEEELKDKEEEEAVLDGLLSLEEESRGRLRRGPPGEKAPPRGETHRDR
Chain of UniProt P31224 (whole entry, unmodified, looked up): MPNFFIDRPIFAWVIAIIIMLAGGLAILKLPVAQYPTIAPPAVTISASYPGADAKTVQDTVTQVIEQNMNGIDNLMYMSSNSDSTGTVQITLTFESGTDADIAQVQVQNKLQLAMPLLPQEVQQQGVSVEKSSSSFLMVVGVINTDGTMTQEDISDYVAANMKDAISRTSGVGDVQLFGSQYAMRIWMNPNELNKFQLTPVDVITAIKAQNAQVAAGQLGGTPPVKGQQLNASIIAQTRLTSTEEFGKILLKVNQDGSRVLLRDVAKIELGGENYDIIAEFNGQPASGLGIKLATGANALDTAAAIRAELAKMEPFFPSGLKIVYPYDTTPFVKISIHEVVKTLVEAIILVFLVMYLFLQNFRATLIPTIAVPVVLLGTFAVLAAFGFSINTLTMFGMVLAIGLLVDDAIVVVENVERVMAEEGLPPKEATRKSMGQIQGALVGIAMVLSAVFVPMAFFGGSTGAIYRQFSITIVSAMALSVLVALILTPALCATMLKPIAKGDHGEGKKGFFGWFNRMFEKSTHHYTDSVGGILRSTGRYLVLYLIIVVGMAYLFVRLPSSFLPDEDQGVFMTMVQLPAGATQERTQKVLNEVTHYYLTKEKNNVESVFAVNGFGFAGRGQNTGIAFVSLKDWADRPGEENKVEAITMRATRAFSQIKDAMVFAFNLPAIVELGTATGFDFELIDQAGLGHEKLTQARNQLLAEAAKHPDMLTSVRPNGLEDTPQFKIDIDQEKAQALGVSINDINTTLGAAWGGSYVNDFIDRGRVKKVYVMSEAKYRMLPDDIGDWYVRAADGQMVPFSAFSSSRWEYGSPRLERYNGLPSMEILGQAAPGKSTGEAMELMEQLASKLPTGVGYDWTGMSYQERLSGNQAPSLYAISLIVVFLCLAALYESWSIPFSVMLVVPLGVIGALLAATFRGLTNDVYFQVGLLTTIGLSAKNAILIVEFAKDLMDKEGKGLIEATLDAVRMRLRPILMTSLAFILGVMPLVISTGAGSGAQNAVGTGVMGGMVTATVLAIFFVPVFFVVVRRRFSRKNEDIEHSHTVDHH
Chain of UniProt P45481 (whole entry, looked up): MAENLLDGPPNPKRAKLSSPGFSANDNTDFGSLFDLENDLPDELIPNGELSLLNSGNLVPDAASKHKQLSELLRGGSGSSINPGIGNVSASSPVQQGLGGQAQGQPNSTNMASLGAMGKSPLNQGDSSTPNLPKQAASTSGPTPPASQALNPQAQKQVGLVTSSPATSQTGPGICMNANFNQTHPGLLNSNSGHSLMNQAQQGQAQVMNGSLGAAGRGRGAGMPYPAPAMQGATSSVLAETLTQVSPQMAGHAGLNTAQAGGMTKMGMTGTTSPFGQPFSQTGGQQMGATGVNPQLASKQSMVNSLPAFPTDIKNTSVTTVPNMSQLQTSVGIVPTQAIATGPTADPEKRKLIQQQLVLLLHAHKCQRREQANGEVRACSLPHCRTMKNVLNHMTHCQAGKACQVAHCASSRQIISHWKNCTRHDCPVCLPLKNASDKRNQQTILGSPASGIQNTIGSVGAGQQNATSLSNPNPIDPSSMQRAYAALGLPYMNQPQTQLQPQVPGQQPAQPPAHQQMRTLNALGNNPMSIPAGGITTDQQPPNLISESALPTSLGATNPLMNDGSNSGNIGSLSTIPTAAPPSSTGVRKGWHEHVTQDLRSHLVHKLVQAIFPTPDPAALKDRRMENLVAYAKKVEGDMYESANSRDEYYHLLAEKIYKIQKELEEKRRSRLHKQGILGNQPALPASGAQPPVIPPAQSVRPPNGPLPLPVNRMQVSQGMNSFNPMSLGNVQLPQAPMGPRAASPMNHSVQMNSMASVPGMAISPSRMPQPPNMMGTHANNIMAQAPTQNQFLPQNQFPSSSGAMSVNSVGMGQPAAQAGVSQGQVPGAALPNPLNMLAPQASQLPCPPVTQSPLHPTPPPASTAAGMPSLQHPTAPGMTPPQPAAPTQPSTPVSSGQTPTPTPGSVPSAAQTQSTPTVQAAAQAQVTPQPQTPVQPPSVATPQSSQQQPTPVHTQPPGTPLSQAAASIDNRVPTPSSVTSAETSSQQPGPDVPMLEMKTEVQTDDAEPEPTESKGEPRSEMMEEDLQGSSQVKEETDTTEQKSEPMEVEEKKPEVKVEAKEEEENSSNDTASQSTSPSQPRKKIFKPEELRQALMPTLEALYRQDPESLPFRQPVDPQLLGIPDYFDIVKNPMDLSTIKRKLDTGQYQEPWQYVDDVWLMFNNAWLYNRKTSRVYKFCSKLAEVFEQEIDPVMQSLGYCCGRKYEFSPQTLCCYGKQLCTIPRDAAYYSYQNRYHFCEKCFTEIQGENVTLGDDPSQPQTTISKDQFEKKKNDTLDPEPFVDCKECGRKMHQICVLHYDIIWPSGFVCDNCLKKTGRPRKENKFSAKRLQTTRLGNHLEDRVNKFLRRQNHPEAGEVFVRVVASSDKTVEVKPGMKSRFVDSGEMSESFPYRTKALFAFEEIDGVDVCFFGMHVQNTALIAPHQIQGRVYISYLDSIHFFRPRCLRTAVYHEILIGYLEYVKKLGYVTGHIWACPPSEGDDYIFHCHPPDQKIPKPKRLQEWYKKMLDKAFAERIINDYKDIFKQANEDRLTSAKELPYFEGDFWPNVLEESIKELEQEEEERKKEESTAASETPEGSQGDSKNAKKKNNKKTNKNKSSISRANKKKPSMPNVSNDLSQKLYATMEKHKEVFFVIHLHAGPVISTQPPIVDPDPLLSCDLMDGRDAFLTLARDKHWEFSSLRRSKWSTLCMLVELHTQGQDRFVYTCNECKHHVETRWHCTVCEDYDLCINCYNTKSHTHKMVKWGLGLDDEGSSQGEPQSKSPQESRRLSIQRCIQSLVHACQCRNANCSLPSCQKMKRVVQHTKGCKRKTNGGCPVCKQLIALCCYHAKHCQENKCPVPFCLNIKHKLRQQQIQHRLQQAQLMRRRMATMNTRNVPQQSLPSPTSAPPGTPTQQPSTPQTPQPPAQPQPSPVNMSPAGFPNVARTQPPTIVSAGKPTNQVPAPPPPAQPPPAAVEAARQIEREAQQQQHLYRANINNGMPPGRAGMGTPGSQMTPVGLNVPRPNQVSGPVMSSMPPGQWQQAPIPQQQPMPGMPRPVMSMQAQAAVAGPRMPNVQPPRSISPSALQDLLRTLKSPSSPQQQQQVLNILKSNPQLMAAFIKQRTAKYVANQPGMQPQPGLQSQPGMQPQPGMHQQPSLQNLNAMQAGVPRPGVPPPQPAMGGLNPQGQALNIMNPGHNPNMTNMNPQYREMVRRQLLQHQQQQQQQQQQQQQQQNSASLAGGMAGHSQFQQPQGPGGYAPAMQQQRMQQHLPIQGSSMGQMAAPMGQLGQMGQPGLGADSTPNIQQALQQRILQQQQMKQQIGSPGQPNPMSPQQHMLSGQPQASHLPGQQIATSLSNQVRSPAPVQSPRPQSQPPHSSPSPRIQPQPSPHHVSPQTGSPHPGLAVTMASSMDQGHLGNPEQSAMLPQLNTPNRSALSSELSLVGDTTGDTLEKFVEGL
Chain of UniProt P56536 (whole entry, looked up): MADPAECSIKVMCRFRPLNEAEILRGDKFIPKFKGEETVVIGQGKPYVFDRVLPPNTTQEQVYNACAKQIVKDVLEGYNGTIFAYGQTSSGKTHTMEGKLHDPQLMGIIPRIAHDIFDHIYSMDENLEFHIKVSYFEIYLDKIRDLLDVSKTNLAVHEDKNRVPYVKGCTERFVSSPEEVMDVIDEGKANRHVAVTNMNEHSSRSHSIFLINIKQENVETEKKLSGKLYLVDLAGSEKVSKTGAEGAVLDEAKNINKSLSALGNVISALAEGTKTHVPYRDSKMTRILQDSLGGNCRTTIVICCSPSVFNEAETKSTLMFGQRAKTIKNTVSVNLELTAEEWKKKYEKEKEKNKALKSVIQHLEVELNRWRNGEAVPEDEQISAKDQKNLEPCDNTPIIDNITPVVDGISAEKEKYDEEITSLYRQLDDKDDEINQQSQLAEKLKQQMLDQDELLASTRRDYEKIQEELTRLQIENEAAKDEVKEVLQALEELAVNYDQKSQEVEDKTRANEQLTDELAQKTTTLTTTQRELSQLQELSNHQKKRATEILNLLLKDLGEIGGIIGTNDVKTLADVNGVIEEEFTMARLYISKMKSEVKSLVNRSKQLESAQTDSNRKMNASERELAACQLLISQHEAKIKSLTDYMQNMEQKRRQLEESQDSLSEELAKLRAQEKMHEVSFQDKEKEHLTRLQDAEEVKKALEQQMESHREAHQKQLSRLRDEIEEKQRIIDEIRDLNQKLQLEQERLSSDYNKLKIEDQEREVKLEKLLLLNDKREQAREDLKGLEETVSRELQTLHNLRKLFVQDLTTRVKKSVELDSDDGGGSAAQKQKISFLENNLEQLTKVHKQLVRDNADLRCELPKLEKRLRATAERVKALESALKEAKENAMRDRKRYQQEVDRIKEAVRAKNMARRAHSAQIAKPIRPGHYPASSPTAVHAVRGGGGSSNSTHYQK
Chain of UniProt P00750 (whole entry, looked up): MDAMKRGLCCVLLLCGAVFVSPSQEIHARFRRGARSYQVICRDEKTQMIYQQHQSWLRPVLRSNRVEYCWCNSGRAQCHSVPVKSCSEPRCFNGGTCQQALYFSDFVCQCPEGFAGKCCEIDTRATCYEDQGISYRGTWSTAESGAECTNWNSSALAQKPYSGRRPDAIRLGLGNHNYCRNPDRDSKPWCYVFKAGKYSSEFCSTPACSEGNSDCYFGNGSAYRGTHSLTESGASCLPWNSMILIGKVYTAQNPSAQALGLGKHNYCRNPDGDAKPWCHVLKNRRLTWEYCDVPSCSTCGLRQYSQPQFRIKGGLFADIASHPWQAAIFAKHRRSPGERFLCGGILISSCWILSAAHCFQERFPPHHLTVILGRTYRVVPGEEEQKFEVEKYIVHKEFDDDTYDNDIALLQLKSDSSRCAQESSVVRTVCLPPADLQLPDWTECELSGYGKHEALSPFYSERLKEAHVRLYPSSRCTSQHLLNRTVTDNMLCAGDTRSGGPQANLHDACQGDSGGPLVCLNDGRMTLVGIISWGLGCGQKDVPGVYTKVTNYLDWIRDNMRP

With `B1 (MC159L)` the Ki was 0.0485 µM (CASP8 tandem DED Y8A, TAMRA label; polymerisation inhibition, fluorescence polarization; apparent).
For `B2 (acrA)`, the k-1 was 0.021 s⁻¹ (acrB C493S/C887S/S1043C (Escherichia coli, UniProt P31224); SPR; two-state model, dissociation).
`tubulin alpha/beta microtubules, taxol-stabilized, rhodamine label` gave a gliding speed of 666 nm/s (KIF5C 1-407 (Rattus norvegicus, UniProt P56536); in vitro motility assay; 22 °C, together with: MgATP 1 mM).
`B3` gave a Kd of 0.07 µM (ICAM1 28-480 (Homo sapiens, UniProt P05362); SPR).
For `RmS-6, glycosylated (Rhipicephalus microplus)`, the protease inhibition was < 20% (CMA1 (Homo sapiens, UniProt P23946); chromogenic substrate hydrolysis, inhibitor; 1 µM).
For `gag peptide M6F/I8Y (SHIV)`, the relative binding was 1 (Mane-A1*082:01 (Macaca nemestrina); competition with radiolabeled peptide, radioligand binding; reference: optimal residue, higher = weaker binding).
`RmS-3, glycosylated (Rhipicephalus microplus)` has a protease inhibition of < 20% (PLAT (Homo sapiens, UniProt P00750); chromogenic substrate hydrolysis, inhibitor; 1 µM).
Under “molecule per partner”, `DLG1 PDZ2 domain (Homo sapiens)` is recorded as 1 (E6 residues 80-151 (Human papillomavirus type 16); ITC; pH 6.50, 20 °C).
`RmS-17, glycosylated (Rhipicephalus microplus)` gave a protease inhibition of < 20% (F9 factor IXa (Bos taurus); chromogenic substrate hydrolysis, inhibitor; 1 µM).
For `B4 (HBZ 1-77)`, the relative binding was 2 fold (Crebbp 588-683 (Mus musculus, UniProt P45481); pull-down; together with: pCREB 100 nM; reference: without pCREB, higher = more binding).
